Assay results of several laboratories.
± marks the error that the study gave.

Compound | cell line | species | route | dose | time | setting | tumour growth inhibition
Cl.O=C(c1cc(Cc2n[nH]c(=O)c3ccccc23)ccc1F)N1CC(CNC2CC2)C1 | – | BALB/c nude mouse, CAPAN-1 xenograft | oral | 200 mg/kg once daily | 28 days | – | 111%
C=CC(=O)Nc1cc(Nc2nccc(Nc3cc(Cl)c(F)cc3C(C)(C)O)n2)c(OC)cc1N1CC[C@@H](N(C)C)C1 | NCI-H2073 EGFR SVD knock-in | BALB/c nude mouse, NCI-H2073 xenograft | – | 12.5 mg/kg twice daily | 21 days | – | 27.6%
C[C@]12CC[C@H](n3ccnc3)CC1=CC[C@@H]1[C@@H]2CC[C@]2(C)C(n3cnc4ccccc43)=CC[C@@H]12.Cl.Cl | – | mouse CWR22Rv1 xenograft | oral | 5 mg/kg once daily | 16 days | 5 days per week | 79.2%
COCc1cc(C(=O)Nc2cc([C@H]3CC[C@@H](OC(=O)NC(C)C)C3)[nH]n2)n(C)n1 | MCF7 xenograft | NSG mouse | oral twice daily | medium dose | – | – | 64%
CCCCc1nc2cc(/C=C/C(=O)NO)ccc2n1CCN(CC)CC | – | mouse, SET-2 subcutaneous xenograft | – | 125 mg/kg every other day | day 0 to 18 | – | 77%
O=C1CC[C@H](N2Cc3cc(N4CCN(CC5CCN(c6ccc([C@@H]7c8ccc(O)cc8CC[C@@H]7c7ccccc7)cc6)CC5)CC4)ccc3C2=O)C(=O)N1 | – | mouse MCF7 orthotopic xenograft | oral | 10 mg/kg once daily | 28 days | – | 98%
C[C@@H]1COCCN1c1cc([C@]2(O)C[C@H]3CC[C@@H](C2)O3)c2cnn(-c3cc[nH]n3)c2n1 | Granta-519 xenograft | mouse | – | 5 mg/kg QD x3 | day 20 | – | 43.9 ± 4%
COc1ccc(F)cc1C(=O)NCc1ccc(-c2nn([C@@H](C)C(F)(F)F)c(N)c2C(N)=O)cc1 | – | mouse Rec1 xenograft | oral | 30 mg/kg twice daily | – | – | 84%

Excerpt of the above:
Compound | cell line | species | route | dose | time | setting | tumour growth inhibition
COc1ccc(F)cc1C(=O)NCc1ccc(-c2nn([C@@H](C)C(F)(F)F)c(N)c2C(N)=O)cc1 | – | mouse Rec1 xenograft | oral | 30 mg/kg twice daily | – | – | 84%
